# Assay results pooled from the literature.
# A part holds a random share of what one study measured.

# Sample 1 — method: protein binding microarray; molecule type: double-stranded DNA, one strand shown; sample: in vitro; concentration: not given; relative to: not given; reading: higher = stronger binding
# Target: Histone acetyltransferase KAT6A, winged helix 2, GST fusion (KAT6A, Homo sapiens, UniProt Q92794, residues 85-181)
# Setting: 8-mer, flanks averaged, mean of 2 arrays, mostly near background
# Target sequence (chain): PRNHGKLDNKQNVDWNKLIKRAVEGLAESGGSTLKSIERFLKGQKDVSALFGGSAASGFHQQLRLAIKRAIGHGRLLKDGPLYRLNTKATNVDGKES
Oligonucleotide,E-score
AGACTGTG,-0.287
AAGGGCGA,0.0633
ACAGCCCA,-0.061
CGATCCCG,0.0158
CGGTTCTC,-0.0365
CAATAACG,0.204
ATCCCAAA,0.138
GTGCAGGA,0.00205
AGCAGCAA,0.0905
CCGAAATA,0.0484
GGGAAATA,0.0365
TGACCTAA,0.129
CGGCCGTA,0.19
AACTTTTG,-0.088
AGCTTCGC,0.124
CCTCTTTA,-0.0106
CTCAGGTA,0.0434
GAGGTTCC,0.047
GGACCCCA,0.031

# Sample 2 — method: aptamer microarray, sandwich; molecule type: DNA with 2'F-ANA; sample: in vitro; concentration: 200 nM; together with: Cy3 exosite-II aptamer, 400 nM; reading: higher = stronger binding; oligonucleotide: GGTTGGTGTGGTTGG
# Target: Prothrombin, mature alpha-thrombin (F2, Homo sapiens, UniProt P00734)
# Setting: whole 15-mer aptamer, many near background
Modification,mean fluorescence intensity [a.u.]
2'F-ANA at 2 3 5 6 9 10 11 12 13 14,56.3
2'F-ANA at 10 11 12,245
2'F-ANA at 2 3 4 5 8 13 15,80.4
2'F-ANA at 3 5 6 7 10 14,50.2
2'F-ANA at 1 3 4 5 10 12 14 15,64.5
2'F-ANA at 3 6 7 8 11 12 13 15,1130
2'F-ANA at 2 4 5 6 8 10 11 12 13,52.9
2'F-ANA at 1 4 9 10 12 13 15,57.3
2'F-ANA at 3 8 9 10 13 15,531
2'F-ANA at 2 3 4 6 7 8 15,657
2'F-ANA at 1 2 5 9 10 15,62.3
2'F-ANA at 1 2 3 5 7 8 9 10 12 13 14 15,51.4
2'F-ANA at 1 3 4 6 8 10 12,83.9
2'F-ANA at 1 3 4 6 9 10 11 12 13,78.8

# Sample 3 — method: universal PBM; molecule type: double-stranded DNA, one strand shown; sample: in vitro; concentration: 600 nM; reading: higher = stronger binding
# Target: Sal-like protein 4, full length isoform A (SALL4, Homo sapiens, UniProt Q9UJQ4, residues 1-1053)
# UniProt Q9UJQ4, sequence (whole entry, looked up): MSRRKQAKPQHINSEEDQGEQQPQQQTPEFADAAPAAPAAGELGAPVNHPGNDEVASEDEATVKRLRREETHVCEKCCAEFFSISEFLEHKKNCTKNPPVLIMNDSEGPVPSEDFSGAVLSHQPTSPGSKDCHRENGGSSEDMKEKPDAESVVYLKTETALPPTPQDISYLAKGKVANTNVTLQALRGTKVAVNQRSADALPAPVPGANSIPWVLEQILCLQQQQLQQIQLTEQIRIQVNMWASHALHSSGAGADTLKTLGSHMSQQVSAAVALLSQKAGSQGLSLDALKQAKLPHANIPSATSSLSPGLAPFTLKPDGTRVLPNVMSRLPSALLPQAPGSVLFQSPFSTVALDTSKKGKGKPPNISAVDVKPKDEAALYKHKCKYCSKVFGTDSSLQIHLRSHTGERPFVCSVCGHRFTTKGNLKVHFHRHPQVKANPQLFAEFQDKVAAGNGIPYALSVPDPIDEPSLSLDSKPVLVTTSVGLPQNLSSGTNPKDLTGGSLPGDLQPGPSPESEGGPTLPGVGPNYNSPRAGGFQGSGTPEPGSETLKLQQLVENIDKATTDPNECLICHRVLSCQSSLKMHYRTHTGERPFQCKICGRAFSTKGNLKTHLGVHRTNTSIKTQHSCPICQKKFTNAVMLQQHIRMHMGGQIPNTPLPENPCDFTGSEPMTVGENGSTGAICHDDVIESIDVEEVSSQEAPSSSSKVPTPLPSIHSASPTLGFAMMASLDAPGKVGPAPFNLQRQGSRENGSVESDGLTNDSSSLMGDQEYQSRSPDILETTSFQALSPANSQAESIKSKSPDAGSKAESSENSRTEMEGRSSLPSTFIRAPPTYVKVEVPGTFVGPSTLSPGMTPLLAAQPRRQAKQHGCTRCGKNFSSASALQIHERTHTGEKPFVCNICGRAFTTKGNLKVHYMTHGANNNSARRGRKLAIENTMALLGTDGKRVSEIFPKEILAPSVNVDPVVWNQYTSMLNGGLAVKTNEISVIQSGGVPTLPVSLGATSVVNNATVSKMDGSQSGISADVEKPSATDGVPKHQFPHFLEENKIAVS
# Setting: 8-mer, flanks averaged, mean of replicates
Oligonucleotide,E-score
CCCGTTTA,0.0617
AAACGCCC,-0.191
AACGCATG,-0.0152
ACCCACCT,-0.254
GAGCATGA,-0.0263
AAGACTTC,-0.0642
ACCTCCCC,-0.265
ACACGGCG,-0.178
ACCATGCA,-0.0704
CCGGTCGC,-0.343
CACACCCG,-0.222
AACTTAGA,0.0368
AACGGGTC,-0.276
CAAACATA,0.224
GAGAAGAA,0.1
CTATGTTC,0.101
CCTCGGTA,-0.243
GCATAACC,0.0256

# Other studies, line by line
Substance,target,test,system,conditions,how to read,quantity,value
"PhoQ, residues 284 288 289 292 302 303 GNNTDL","PhoP, residues 12 14 15 18 19 NFCKL (Escherichia coli, UniProt P23836)","Sort-seq, item: YFP reporter",E. coli,"PhoQ-PhoP variant library, together with: 10 µM Mg2+","relative to: high Mg2+ state, higher = stronger signaling",fold induction,4.66

# A few entries again (sample 1):
Oligonucleotide,E-score
AACTTTTG,-0.088
AGCTTCGC,0.124
CCTCTTTA,-0.0106
CTCAGGTA,0.0434
GAGGTTCC,0.047
